Results of several laboratories.
A part holds a random share of what one study measured. Positions count from the first letter of the parent shown.

Block 1 — technique: protein-binding microarray; molecule type: double-stranded DNA, one strand shown; sample: in vitro; tested at: 250 nM; notes: 60-bp whole probe; together with: salmon DNA 0.4 mg/ml; relative to: random background probes; direction: higher = stronger binding; shared flanks, not repeated: GCCTAGCAC … GTCTTGATTCGCTTGACGCTGCTG
Target: Interferon regulatory factor 5, full length, phosphomimetic (IRF5, Homo sapiens, UniProt Q13568-2, residues 1-514, K96S/S451D/S453D/S456D/S462D)
| Oligonucleotide | log fluorescence [z-score] |
| --- | --- |
| GACGAACAGGGGTATCGAGACGTGCTA | 0.12 |
| CCAGACTTGATTTTGGTCTTGTGCTAG | 0.272 |
| CTAGGTCTCCTTATCCTTTAGTGCTAG | -0.158 |
| TCAATTTCCACTTTGACACTGTGCTAG | 1.15 |
| TCAGCTTCCATTTTCTGACTGTGCTAG | 1.4 |
| GACCTTCACCTCTCTGTCCCCGTGCTA | -0.171 |
| GACGGTTTCAGACTGGAGACGTGCTAG | 0.68 |
| TTAGATTTCATTTCCGATTAGTGCTAG | 2.09 |
| CTAGGTATCGGGTATCGGTTAGTGCTA | 6.48 |
| TTACGTTCCGGTTTCGGTTAGTGCTAG | 9.84 |
| GACGGTCTCAGTTTCGGGACGTGCTAG | 5.64 |
| TTGGTGCTCATTTTTTTTGCGTGCTAG | 0.196 |
| TCAGATCTCAGACTGGATTAGTGCTAG | -0.191 |
| GACGGTATCATTATCCTGACGTGCTAG | 1 |
| GTAGGTCTCCTTATCCTTTAGTGCTAG | -0.254 |
| TTCGGACTGCTTATCCTTTAGTGCTAG | -0.0657 |
| ATGTTTTTCATTTTGTTCATGTGCTAG | 2.75 |
| GACGGTATCGACTTTTGGGACGTGCTA | 1.9 |
| TTATGTTTCGGGACTGGGTTAGTGCTA | 6.35 |
| TTAGATTTCAGTTCCGATTTGTGCTAG | 2.76 |
| GACGGTTTCGACTTTGGGGACGTGCTA | 5.23 |
| GACGGACTGGTCACTGGGGACGTGCTA | -0.577 |
| TCAATTCTCAACCCTGGTACTGTGCTA | 0.284 |
| GACGATTTCGGGACTGAAGACGTGCTA | 2.15 |

Block 2 — target: CCNF, cyclin fold, Cln2 fusion (human); technique: yeast growth competition, sequencing; sample: yeast; notes: strong parent motif; relative to: not given; direction: higher = stronger binding
Starting sequence: MICAL3 docking peptide (human); LQLRRQLSFSEDS
| Variant | normalised enrichment score |
| --- | --- |
| LQLRRQLLFSEDS [S8L] | 8.47 |
| LQSRRQLSFSEDS [L3S] | 4.58 |
| LQTRRQLSFSEDS [L3T] | 7.29 |
| LQLRRQLSFSMDS [E11M] | 5.55 |
| LHLRRQLSFSEDS [Q2H] | 5.58 |
| LQERRQLSFSEDS [L3E] | 2.22 |
| LQLRRQLSFLEDS [S10L] | 5.59 |
| LQLRRNLSFSEDS [Q6N] | 1.07 |
| LQLRRQLSSSEDS [F9S] | -0.3 |
| LQLRRQLSFSLDS [E11L] | 5.87 |
| LQLRRQRSFSEDS [L7R] | 0.114 |
| LQLRRQLSFSECS [D12C] | 5.84 |
| LQLRRQLNFSEDS [S8N] | 6.82 |
| LQLRRQLSFFEDS [S10F] | 5.69 |
| LQLRRQLSFCEDS [S10C] | 5.66 |
| LQLRRQKSFSEDS [L7K] | 0.31 |
| LQLNRQLSFSEDS [R4N] | 5.05 |
| LQLRRQLSHSEDS [F9H] | -0.371 |
| LQLRRQLSFSEHS [D12H] | 5.86 |
| LQLRRQLSFSPDS [E11P] | 6.2 |
| LQLLRQLSFSEDS [R4L] | 0.689 |
| LQLRRQLTFSEDS [S8T] | 6.46 |
| LQLERQLSFSEDS [R4E] | 0.0487 |
| LQLRRQLSLSEDS [F9L] | 0.798 |
| LQLRRQLSFSEWS [D12W] | 6.36 |

Block 3 — technique: RNA Bind-n-Seq; molecule type: RNA; sample: in vitro; tested at: 365 nM; relative to: no-protein control; direction: higher = stronger binding
Target: RNA binding protein fox-1 homolog 2, RRM domain, GST-SBP tag (RBFOX2, Homo sapiens, UniProt O43251-10, residues 100-194)
Notes: natural RNA segment, single round, ends assumed
Shared flanks, not repeated: GGGAGUUCUACAGUCCGACGAUC … UGGAAUUCUCGGGUGCCAA
Residues (chain): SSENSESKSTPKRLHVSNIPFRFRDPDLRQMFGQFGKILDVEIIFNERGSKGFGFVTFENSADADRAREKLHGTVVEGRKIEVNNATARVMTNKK
| Oligonucleotide | RBNS enrichment (R) |
| --- | --- |
| AGUGAGCUUCCCUGUGCCCACUCAGUGAACUAAGUCUGACCAUCCUUCAGGGACGUUCCUUUUGGUAAAUAUACACUGUAAUCUUUAAGUCUAAAUUUAUAUGUGAAAGU | 0.358 |
| UAGUCUUACUGAGCUUAUGCUUCACUCCUUUAUGUUUAACCAUGUGUCUACAAGAAUAAGUUUGUUUUGGAAAGUUGAGCUAUAGCUACAGCUCUAGCUAUCCAGCAGAC | 0.382 |
| UGGCUGCCAGUAGCAGGCCUGGCAUGGCGUGACGGGAGGGGCCUAAUUACCUAGCUGUUGCUGGACACCAGCUGUGCAUACCUGAGCAUGCCCAGUGCAUGUUGGGUCCA | 3.87 |
| CAGAGAAUCAGGUAACAUUGCACAGCCUGCGUUCUCCUGCAGUGGUGGCACGCCUUGUGCUGACGACCCCCACUGGGCUACAGUCACAGGAGAAUUGAGACUUGGAAAAG | 0.324 |
| UGUAUAAAAGAGCCUUAAAUGGAACAUUGUUUUGAGAUCAAACUCCCUACCCUCACAAAAGUGGCCACGUUGCAAUAAAAAUUGUGGCAGAUUACAGAAUGUUGCCUUGU | 1.01 |
| GACUAGAACUUAACGGAACAAGUCUAGGACAGAAGUUAAGAUCUGAUUAUUUACUUUGUUUAUUGUCUAUAUGCCUUUUAAAAAAAUAAACUUGUUAUGCAAAAUAAAAC | 0.856 |
| CAUACCAUCAGUUUCUCAGUUCCAGAAGUUAUACCUUUAUUUUGAGCUGUGUAUAGGUAGAAUAAAAAAUUCCUUUCAUAUCGUUAUUGUACAAAAAGUAAAGAGUAUCC | 0.571 |
| CAUAUUUGUAUUUAUUUCCAAAAUUAAAUUGUAAGCUCCUUGAGGGCAGGAAUAAUAACUUUUACAUUUGUAUCUCUGCACCCCCGAGUGCCUAGUAUAGUGCUGAGCAC | 0.451 |
| GAAGAGCAGUUUGUCCACUCUGGGUGCUGCUGAGGGAGCUGUUUGGGAAGAAGCCAUCCCUGGCCAUAGCCCCCAGGAUACAGCCAGCCCCUGUAGCUGCAAGUAGCAGG | 0.484 |
| GACCACAGCCGCGCUGCCGAGGGCCAAGCACAAAGGUUCCAGUGAGCGCAUGUCCCAGCCCCUGGUGGCCAGGCUCCCCUUGCUGAGCCGCUGCCACUUCACCCUGUGGG | 0.487 |
| UGUGGAGGGACAACAGAGAGCAGUGUAUCUGAGUAAGAUGCACACAUCGAAGUGCGUUCAAAGUCUGUGUCUAGGUAUAUAUGUCCGUGUAGCUCUCUCCUUUUGUUUAC | 0.466 |
| GAGGGCACAACACUUUCAUUCAGCAAAAUCGUUUGUGUUCCAGUCACACUGUGGGCACCUCUUGCAUCGCCUGCCAUUGCUGUGGAGGGUGGCCAUGGGCCAAAGGAAAA | 1.41 |

Block 4 — technique: RNAcompete; molecule type: RNA; sample: in vitro; tested at: 20 nM; notes: 7-mer, probes averaged, single round; relative to: mean of 7-mers; direction: higher = stronger binding
Target: PABPC1L2, full length, GST fusion (mouse, UniProt A0ABA7IW68)
| Oligonucleotide | 7-mer Z-score |
| --- | --- |
| AUGCAAU | -0.0881 |
| UGGUCCU | 0.0533 |
| CUGACAG | -0.199 |
| GAAUCAU | -0.142 |
| GUACUUC | -0.277 |
| AGAUGUA | -0.13 |
| AUGGUUA | -0.141 |
| CGACUGG | 0.0189 |
| CUUUCCU | -0.376 |
| CGUCUAA | -0.264 |
| UAAGUAU | -0.132 |
| GAACAGC | -0.00833 |
| CACAUAA | 0.361 |
| AGGGCCC | -0.079 |
| GACCCAC | -0.273 |
| CGUCAAA | 0.0533 |
| GGGACGG | 0.331 |

Block 5 — technique: universal PBM; molecule type: double-stranded DNA, one strand shown; sample: in vitro; tested at: 600 nM; direction: higher = stronger binding
Target: Sal-like protein 4, full length isoform A (SALL4, Homo sapiens, UniProt Q9UJQ4, residues 1-1053)
Sequence of UniProt Q9UJQ4 (whole entry, looked up): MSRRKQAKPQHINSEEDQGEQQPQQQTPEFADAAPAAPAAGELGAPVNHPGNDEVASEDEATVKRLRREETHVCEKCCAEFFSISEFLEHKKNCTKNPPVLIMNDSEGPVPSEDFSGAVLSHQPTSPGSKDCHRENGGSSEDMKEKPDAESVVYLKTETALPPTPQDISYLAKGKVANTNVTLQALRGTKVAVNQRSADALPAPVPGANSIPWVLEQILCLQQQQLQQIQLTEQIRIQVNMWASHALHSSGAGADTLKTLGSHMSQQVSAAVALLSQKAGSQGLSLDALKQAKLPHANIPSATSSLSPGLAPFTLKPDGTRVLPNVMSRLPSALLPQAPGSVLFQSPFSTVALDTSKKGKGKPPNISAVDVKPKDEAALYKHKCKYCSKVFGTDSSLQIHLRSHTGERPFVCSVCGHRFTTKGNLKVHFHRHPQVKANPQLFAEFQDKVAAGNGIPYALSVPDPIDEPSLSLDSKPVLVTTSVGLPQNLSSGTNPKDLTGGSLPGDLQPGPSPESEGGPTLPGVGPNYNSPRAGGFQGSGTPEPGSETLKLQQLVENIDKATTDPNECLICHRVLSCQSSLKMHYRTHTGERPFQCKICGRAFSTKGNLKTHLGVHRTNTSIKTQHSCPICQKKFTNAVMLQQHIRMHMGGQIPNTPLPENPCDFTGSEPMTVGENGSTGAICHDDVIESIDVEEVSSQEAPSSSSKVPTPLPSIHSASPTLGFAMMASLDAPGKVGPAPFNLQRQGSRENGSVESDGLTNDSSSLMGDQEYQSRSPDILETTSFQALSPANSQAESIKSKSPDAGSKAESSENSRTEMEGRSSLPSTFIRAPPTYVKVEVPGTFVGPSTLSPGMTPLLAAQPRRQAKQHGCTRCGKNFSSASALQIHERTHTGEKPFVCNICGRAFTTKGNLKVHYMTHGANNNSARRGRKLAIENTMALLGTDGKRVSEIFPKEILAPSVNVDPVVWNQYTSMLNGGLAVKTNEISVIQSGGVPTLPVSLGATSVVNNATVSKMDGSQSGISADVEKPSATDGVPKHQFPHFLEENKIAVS
Notes: 8-mer, flanks averaged, mean of replicates
| Oligonucleotide | E-score |
| --- | --- |
| CGAATCTA | 0.0883 |
| CAACCTAC | -0.0344 |
| AAACGCAT | 0.0151 |
| GAATTAGA | 0.192 |
| CTATGCTC | -0.048 |
| CAAGGTGC | -0.194 |
| ATCACCAA | 0.138 |
| CACTGACC | -0.175 |
| AAAGATCA | 0.0875 |
| CGTTGGTA | -0.076 |
| CTCTTAAA | 0.184 |
| CTGTTCAA | 0.0388 |
| GCAGGAAA | -0.0334 |
| AGAGGTGG | -0.0255 |
| ACACCGCT | -0.218 |
| GCTATTCA | 0.136 |
| AGCCTGCC | -0.311 |
| GGCGGTAC | -0.162 |
| CTTTCCGA | -0.00556 |
| CGTACATC | -0.0512 |
| GCCTTGCA | -0.0478 |
| CGATGCGC | -0.102 |
| AGTACTGG | -0.17 |
| CTGAGATA | 0.165 |

Some of these lines once more (block 2):
| Variant | normalised enrichment score |
| --- | --- |
| LQLRRQLSFLEDS [S10L] | 5.59 |
| LQLRRNLSFSEDS [Q6N] | 1.07 |
| LQLRRQLSSSEDS [F9S] | -0.3 |
| LQLRRQLSFSLDS [E11L] | 5.87 |
| LQLRRQRSFSEDS [L7R] | 0.114 |
| LQLRRQLSFSECS [D12C] | 5.84 |
| LQLRRQLNFSEDS [S8N] | 6.82 |
| LQLRRQLSFFEDS [S10F] | 5.69 |
| LQLRRQLSFCEDS [S10C] | 5.66 |
